Measured values from different studies.
Compare with care: the assays were run in different laboratories.

| Compound | method | medium | notes | direction | retention time [min] |
| --- | --- | --- | --- | --- | --- |
| CC(C)C[C@H](NC(=O)CNC(=O)[C@H](CCCNC(=N)N)NC(=O)[C@@H](N)CC(=O)O)C(=O)N[C@@H](Cc1ccccc1)C(=O)N[C@@H](CC(=O)O)C(=O)N[C@@H](Cc1ccccc1)C(=O)N[C@@H](CC(C)C)C(=O)NCC(=O)N[C@@H](CCCCN)C(=O)N[C@@H](CCCCN)C(=O)N[C@@H](CCCCN)C(N)=O | RP-HPLC | – | C18 column | – | 15.1 |
| CCCC[C@H](NC(=O)[C@@H](NC(=O)[C@]1(C)CCCC=CCCC[C@](C)(NC(=O)[C@H](CCCCN)NC(=O)CNC(=O)[C@H](Cc2ccccc2)NC(=O)[C@H](CCCCN)NC(=O)[C@H](CCCCN)NC(=O)[C@H](C)NC(=O)[C@H](CO)NC(=O)[C@H](Cc2c[nH]cn2)NC(=O)[C@H](CC(C)C)NC(=O)[C@H](Cc2ccccc2)NC(=O)[C@H](CCCCN)NC(=O)CNC(=O)[C@@H](NC(=O)CN)[C@@H](C)CC)C(=O)N[C@@H](Cc2ccccc2)C(=O)N[C@@H](C(C)C)C(=O)NCC(=O)N1)[C@@H](C)CC)C(=O)N[C@@H](CC(N)=O)C(=O)N[C@@H](CO)C(N)=O | HPLC C18 column | – | – | – | 13.2 |
| CC[C@H](C)[C@@H]1NC(=O)[C@](C)(NC(=O)CN)CCCCCCC=CCCC[C@@](C)(C(=O)N[C@@H](CCCCN)C(=O)N[C@@H](CCCCN)C(=O)N[C@@H](Cc2ccccc2)C(=O)N[C@H](C(=O)N[C@@H](CCCCN)C(=O)N[C@@H](C)C(=O)N[C@@H](Cc2ccccc2)C(=O)N[C@@H](CCCCN)C(N)=O)C(C)C)NC(=O)[C@H](CO)NC(=O)[C@H](CCCCN)NC(=O)[C@H](CC(C)C)NC(=O)[C@H](Cc2ccccc2)NC(=O)[C@H](CCCCN)NC(=O)[C@H](CCCCN)NC1=O | UPLC | TFA water/acetonitrile gradient | – | longer = more hydrophobic | 2.45 |
| CC(C)C[C@H](NC(=O)[C@H](Cc1c[nH]c2ccccc12)NC(=O)[C@H](CCC(N)=O)NC(=O)[C@H](CCC(N)=O)NC(=O)[C@H](CC(N)=O)NC(=O)[C@@H](N)CC(N)=O)C(=O)O | RP-HPLC C18 | – | – | – | 15.9 |
| CC[C@H](C)[C@H](NC(=O)CN)C(=O)N[C@@H](CCCCN)C(=O)N[C@@H](CCCCN)C(=O)N[C@]1(C)CCCCCCC=CCCC[C@@](C)(C(=O)N[C@H](C(=O)N[C@@H](CCCCN)C(=O)N[C@@H](C)C(=O)N[C@@H](Cc2ccccc2)C(=O)N[C@@H](CCCCN)C(N)=O)C(C)C)NC(=O)[C@H](CCCCN)NC(=O)[C@H](CCCCN)NC(=O)[C@H](C)NC(=O)[C@H](CO)NC(=O)[C@H](CCCCN)NC(=O)[C@H](CC(C)C)NC1=O | UPLC | TFA water/acetonitrile gradient | – | longer = more hydrophobic | 2.41 |
| CC(C)C[C@H](NC(=O)[C@H](CC(N)=O)NC(=O)[C@H](CCC(N)=O)NC(=O)[C@H](CCC(N)=O)NC(=O)[C@H](CC(N)=O)NC(=O)[C@@H](N)CC(N)=O)C(=O)O | RP-HPLC C18 | – | – | – | 10.5 |
| CCCC[C@H](NC(=O)[C@@H](NC(=O)[C@H](CCC(=O)O)NC(=O)CNC(=O)[C@@H](NC(=O)[C@H](Cc1ccccc1)NC(=O)[C@H](C)NC(=O)[C@H](CCCCN)NC(=O)CNC(=O)[C@H](Cc1ccccc1)NC(=O)[C@H](CCCCN)NC(=O)[C@]1(C)CCCC=CCCC[C@](C)(NC(=O)[C@H](Cc2ccccc2)NC(=O)[C@H](CCCCN)NC(=O)CNC(=O)[C@@H](NC(=O)CN)[C@@H](C)CC)C(=O)N[C@@H](Cc2c[nH]cn2)C(=O)N[C@@H](CO)C(=O)N[C@@H](C)C(=O)N1)C(C)C)[C@@H](C)CC)C(=O)N[C@@H](CC(N)=O)C(=O)N[C@@H](CO)C(N)=O | HPLC C18 column | – | – | – | 15.7 |
| NC(=O)CC[C@H](NC(=O)[C@H](CCC(N)=O)NC(=O)[C@H](CC(N)=O)NC(=O)[C@@H](N)CC(N)=O)C(=O)N[C@@H](CC(N)=O)C(=O)N[C@@H](Cc1ccc(O)cc1)C(=O)O | RP-HPLC C18 | – | – | – | 9.83 |
| CC[C@H](C)[C@H](NC(=O)CN)C(=O)NCC(=O)N[C@@H](CCCCN)C(=O)N[C@@H](Cc1ccccc1)C(=O)N[C@@H](CC(C)C)C(=O)N[C@@H](Cc1c[nH]cn1)C(=O)N[C@@H](CO)C(=O)N[C@@H](C)C(=O)N[C@@H](CCCCN)C(=O)N[C@@H](CCCCN)C(=O)N[C@@H](Cc1ccccc1)C(=O)NCC(=O)N[C@@H](CCCCN)C(=O)N[C@@H](C)C(=O)N[C@@H](Cc1ccccc1)C(=O)N[C@@]1(C)CCCC=CCCC[C@@](C)(C(=O)N[C@@H](CC(N)=O)C(=O)N[C@@H](CO)C(N)=O)NC(=O)[C@H]([C@@H](C)CC)NC(=O)[C@H](CCC(=O)O)NC(=O)CNC1=O | HPLC C18 column | – | – | – | 12.3 |
| CC[C@H](C)[C@H](NC(=O)CN)C(=O)N[C@@H](CCCCN)C(=O)N[C@@H](CCCCN)C(=O)N[C@@H](Cc1ccccc1)C(=O)N[C@@H](CC(C)C)C(=O)N[C@@H](CCCCN)C(=O)N[C@@]1(C)CCCC=CCCC[C@@](C)(C(=O)N[C@H](C(=O)N[C@@H](CCCCN)C(=O)N[C@@H](C)C(=O)N[C@@H](Cc2ccccc2)C(=O)N[C@@H](CCCCN)C(N)=O)C(C)C)NC(=O)[C@H](CCCCN)NC(=O)[C@H](CCCCN)NC(=O)[C@H](C)NC1=O | UPLC | TFA water/acetonitrile gradient | – | longer = more hydrophobic | 2.34 |
| CCCC[C@H](NC(=O)[C@@H](NC(=O)[C@H](CCC(=O)O)NC(=O)CNC(=O)[C@@H](NC(=O)[C@H](Cc1ccccc1)NC(=O)[C@H](C)NC(=O)[C@]1(C)CCCC=CCCC[C@](C)(NC(=O)[C@H](C)NC(=O)[C@H](CO)NC(=O)[C@H](Cc2c[nH]cn2)NC(=O)[C@H](CC(C)C)NC(=O)[C@H](Cc2ccccc2)NC(=O)[C@H](CCCCN)NC(=O)CNC(=O)[C@@H](NC(=O)CN)[C@@H](C)CC)C(=O)N[C@@H](CCCCN)C(=O)N[C@@H](Cc2ccccc2)C(=O)NCC(=O)N1)C(C)C)[C@@H](C)CC)C(=O)N[C@@H](CC(N)=O)C(=O)N[C@@H](CO)C(N)=O | HPLC C18 column | – | – | – | 19 |
| CC[C@H](C)[C@@H]1NC(=O)[C@@](C)(N)CCCC=CCCC[C@@](C)(C(=O)N[C@@H](CC(C)C)C(=O)N[C@@H](CCCCN)C(=O)N[C@@H](CO)C(=O)N[C@@H](C)C(=O)N[C@@H](CCCCN)C(=O)N[C@@H](CCCCN)C(=O)N[C@@H](Cc2ccccc2)C(=O)N[C@H](C(=O)N[C@@H](CCCCN)C(=O)N[C@@H](C)C(=O)N[C@@H](Cc2ccccc2)C(=O)N[C@@H](CCCCN)C(N)=O)C(C)C)NC(=O)[C@H](CCCCN)NC(=O)[C@H](CCCCN)NC1=O | UPLC | TFA water/acetonitrile gradient | – | longer = more hydrophobic | 2.08 |
| CC(C)C[C@H](N)C(=O)N[C@@H](CC(N)=O)C(=O)N[C@@H](CCC(N)=O)C(=O)N[C@@H](CCC(N)=O)C(=O)N[C@@H](CC(N)=O)C(=O)N[C@@H](Cc1ccc(O)cc1)C(=O)O | RP-HPLC C18 | – | – | – | 11.4 |

Some of these lines once more:
| Compound | method | medium | notes | direction | retention time [min] |
| --- | --- | --- | --- | --- | --- |
| CC[C@H](C)[C@H](NC(=O)CN)C(=O)N[C@@H](CCCCN)C(=O)N[C@@H](CCCCN)C(=O)N[C@]1(C)CCCCCCC=CCCC[C@@](C)(C(=O)N[C@H](C(=O)N[C@@H](CCCCN)C(=O)N[C@@H](C)C(=O)N[C@@H](Cc2ccccc2)C(=O)N[C@@H](CCCCN)C(N)=O)C(C)C)NC(=O)[C@H](CCCCN)NC(=O)[C@H](CCCCN)NC(=O)[C@H](C)NC(=O)[C@H](CO)NC(=O)[C@H](CCCCN)NC(=O)[C@H](CC(C)C)NC1=O | UPLC | TFA water/acetonitrile gradient | – | longer = more hydrophobic | 2.41 |
| NC(=O)CC[C@H](NC(=O)[C@H](CCC(N)=O)NC(=O)[C@H](CC(N)=O)NC(=O)[C@@H](N)CC(N)=O)C(=O)N[C@@H](CC(N)=O)C(=O)N[C@@H](Cc1ccc(O)cc1)C(=O)O | RP-HPLC C18 | – | – | – | 9.83 |
